Results collected from several papers.
Protocols differ between the studies behind these lines. Values joined by “and” are separate records of one study, mostly repeats; a detail may differ. ± gives the spread as reported.

| Compound | cell line | technique | concentration | time | notes | baseline | viability |
| --- | --- | --- | --- | --- | --- | --- | --- |
| COc1ccc2c(c1OC)CN1CCc3cc4c(cc3C1=C2)OCO4 | KU812 | crystal violet | up to 37 µM | 24 and 48 h | – | – | not toxic |
| COc1cccc2c1C(=O)c1c(O)c3c(c(O)c1C2=O)C[C@@](O)(C(=O)CO)C[C@@H]3O[C@H]1C[C@H](N)[C@H](O)[C@H](C)O1 | HEK293T cells | MTT | 10 µM | 24 h | – | untreated | 56.15 ± 0.46% |
| CNc1ccc([N+](=O)[O-])cc1-n1cnc(-c2ccc(C(F)(F)F)cc2)c1 | HEK-Blue hTLR2 | MTT | up to 100 µM | 24 h | – | – | not toxic |
| CCCCCCCCN(CCC(=O)Nc1ccccc1)C(=O)[C@H]1CCCN1 | Lmna+/+ mouse fibroblasts | MTT | 2 µM | 72 h | – | vehicle | 114 ± 6% |
| O=c1[nH]cc(F)c(=O)[nH]1 | H1299 | CCK-8 | 50 µM | 72 h | – | control | 32.39 ± 0.16% |
| CC(=O)Nc1cccc(-n2c(=O)n(C3CC3)c(=O)c3c(Nc4ccc(I)cc4F)n(C)c(=O)c(C)c32)c1 | LoVo (KRAS G13D) | resazurin | 100.00 nM | 72 h | unit not given | DMSO | 0.302 and 0.281 |
| CC[C@]1(O)C[C@H]2CN(CCc3c([nH]c4ccccc34)[C@@](C(=O)OC)(c3cc4c(cc3OC)N(C=O)[C@H]3[C@@](O)(C(=O)OC)[C@H](OC(C)=O)[C@]5(CC)C=CCN6CC[C@]43[C@@H]65)C2)C1 | CHP-212 resistant subline R2 (heterozygous USP7 V517F) | cell viability | 123.5 nM | – | – | – | 13.5% and 17.7% and 13.7% |
| C[C@]12CC[C@@H]3c4ccc(O)cc4C[C@@H](CCCCCCCCC[S+]([O-])CCCC(F)(F)C(F)(F)F)[C@H]3[C@@H]1CC[C@@H]2O (stereo partly drawn) | T47D | CCK-8 | 200 nM | – | – | untreated | 66.6% and 65.8% and 70.1% |
| O=C(Nc1ccccc1OS(=O)(=O)c1ccc(F)cc1)c1ccc2ncccc2c1 | HEK293T cells | MTT | 100 µM | 24 h | – | untreated | 81.5 ± 1.14% |

Some of these lines once more:
| Compound | cell line | technique | concentration | time | notes | baseline | viability |
| --- | --- | --- | --- | --- | --- | --- | --- |
| CC(=O)Nc1cccc(-n2c(=O)n(C3CC3)c(=O)c3c(Nc4ccc(I)cc4F)n(C)c(=O)c(C)c32)c1 | LoVo (KRAS G13D) | resazurin | 100.00 nM | 72 h | unit not given | DMSO | 0.302 and 0.281 |
